Experimental data pooled from the literature.
Every numbered part comes from another study and shows a few of its results, in no order. Changes are numbered by the printed parent chain.

Block 1 — target: CCNB1, cyclin fold, Cln2 fusion (human); technique: yeast growth competition, sequencing; medium: yeast; notes: strong parent motif; relative to: not given; direction: higher = stronger binding
Starting sequence: PKN2 docking peptide (human); VSAVRKLDFSDTM
`S10V` — result for “normalised enrichment score”: 2.65.
Under “normalised enrichment score”, `T12G` is recorded as 3.62.
For `S10Y`, “normalised enrichment score” read 3.4.
For `S10K`, “normalised enrichment score” read 2.16.
Under “normalised enrichment score”, `F9L` is recorded as 0.826.
Under “normalised enrichment score”, `R5A` is recorded as 1.56.
For `R5M`, “normalised enrichment score” read 2.69.
For `F9V`, “normalised enrichment score” read 0.523.
Under “normalised enrichment score”, `A3H` is recorded as 2.33.
`L7R` — result for “normalised enrichment score”: 0.109.
`S10L` — result for “normalised enrichment score”: 2.69.
`S2T`: “normalised enrichment score” 3.53.
Under “normalised enrichment score”, `F9W` is recorded as 1.75.
For `A3R`, “normalised enrichment score” read 0.358.
`S10C` — result for “normalised enrichment score”: 3.77.
`K6T` — result for “normalised enrichment score”: 1.35.
`T12I` — result for “normalised enrichment score”: 3.32.
`D11S` — result for “normalised enrichment score”: 2.76.
`S2P`: “normalised enrichment score” 2.42.
Under “normalised enrichment score”, `V4Y` is recorded as 0.942.
For `D8Q`, “normalised enrichment score” read 2.07.
For `D11Q`, “normalised enrichment score” read 3.
For `D11A`, “normalised enrichment score” read 2.91.
For `S10Q`, “normalised enrichment score” read 3.02.
For `A3F`, “normalised enrichment score” read 2.93.

Block 2 — technique: protein-binding microarray; molecule type: double-stranded DNA, one strand shown; medium: in vitro; tested at: 2200 nM top; notes: 60-bp whole probe; added: salmon DNA 0.4 mg/ml; relative to: random background probes; direction: higher = stronger binding; constant ends, left off below: GCCTAGCAC … GTCTTGATTCGCTTGACGCTGCTG
Target: Interferon regulatory factor 7, full length, phosphomimetic (IRF7, Homo sapiens, UniProt Q92985, residues 1-503, S471D/S472D/S475D/S476D/S477D/S483D/S484D/S487D)
Target sequence (chain): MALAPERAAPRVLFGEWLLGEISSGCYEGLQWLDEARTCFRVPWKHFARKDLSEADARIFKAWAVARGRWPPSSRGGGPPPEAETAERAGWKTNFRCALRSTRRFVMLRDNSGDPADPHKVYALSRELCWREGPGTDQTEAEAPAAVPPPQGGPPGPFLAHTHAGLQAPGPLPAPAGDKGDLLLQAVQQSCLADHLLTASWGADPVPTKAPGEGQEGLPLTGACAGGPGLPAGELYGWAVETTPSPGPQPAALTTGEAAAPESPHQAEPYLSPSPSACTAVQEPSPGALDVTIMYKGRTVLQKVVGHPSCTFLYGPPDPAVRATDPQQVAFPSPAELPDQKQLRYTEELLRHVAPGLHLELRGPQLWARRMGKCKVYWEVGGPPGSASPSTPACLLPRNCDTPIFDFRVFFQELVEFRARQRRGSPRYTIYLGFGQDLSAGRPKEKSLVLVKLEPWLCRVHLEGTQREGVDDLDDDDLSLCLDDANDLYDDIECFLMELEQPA
For `TCATCTTTATGCACTCTTACTGTGCTA`, “fitted relative affinity” read 1.16 z-score.
`TCAGTTTCTGGTTTATTACTGTGCTAG` — result for “fitted relative affinity”: 5.65 z-score.
For `GTAGATATCAGTTTCGATTAGTGCTAG`, “fitted relative affinity” read 6.06 z-score.
Under “fitted relative affinity”, `TCAGCTTTCCTTTGCTTACTGTGCTAG` is recorded as 2.7 z-score.
`TGAGGTATCGGGTTTCGGTTAGTGCTA`: “fitted relative affinity” 3.46 z-score.
`GACGATCTCAGAATGGAGACGTGCTAG`: “fitted relative affinity” -0.474 z-score.
Under “fitted relative affinity”, `ATAGGACTGGACTATCGGTTAGTGCTA` is recorded as -0.0368 z-score.
`TTAGATATCAGTCCCGATTAGTGCTAG`: “fitted relative affinity” 0.675 z-score.
`GACTTTCTTTCAAATGAAGGAGTGCTA` — result for “fitted relative affinity”: 0.524 z-score.
`CACAGAATCCCCTTCTACTCGTGCTAG`: “fitted relative affinity” 1.09 z-score.
`GACGGTCTCGGATTGGGGACGTGCTAG`: “fitted relative affinity” 0.275 z-score.
`TCACTTCCATTTTCTGAAACTGTGCTA` — result for “fitted relative affinity”: 3.89 z-score.
Under “fitted relative affinity”, `TTAGGACTGGGTATCGGCTAGTGCTAG` is recorded as -0.578 z-score.
Under “fitted relative affinity”, `TTAGATTACGGGTATCGATTAGTGCTA` is recorded as 0.4 z-score.
`GACGGTATCCTTTTCCTGGCGTGCTAG`: “fitted relative affinity” 1.09 z-score.
For `TCATATATCATTTAATTACTGTGCTAG`, “fitted relative affinity” read 0.968 z-score.
`GGCGATTTCGGGACTGGAGACGTGCTA` — result for “fitted relative affinity”: 0.976 z-score.
`GACGATCACAGTATCGAGACGTGCTAG`: “fitted relative affinity” 0.0331 z-score.
For `GTCACATTGTGCAATCTTAATGTGCTA`, “fitted relative affinity” read 0.447 z-score.
`GATGGTCTCGGTCTCGGGACGTGCTAG` — result for “fitted relative affinity”: -0.0201 z-score.
`GAGGGACTGGGTATCGGGACGTGCTAG` — result for “fitted relative affinity”: -0.573 z-score.
`GACGGTTTCCTTCCCCTGACGTGCTAG` — result for “fitted relative affinity”: 2.72 z-score.
For `CCCTATTTAAGGCATCTGCAGGTGCTA`, “fitted relative affinity” read 0.776 z-score.
Under “fitted relative affinity”, `TCAATTGTGGTTTTCATACTGTGCTAG` is recorded as 1.39 z-score.
For `GACGGTTTCGGTTTTGGGACGTGCTAG`, “fitted relative affinity” read 11 z-score.

Block 3 — technique: RNA Bind-n-Seq; molecule type: RNA; medium: in vitro; tested at: not given; notes: RNA with constant flanks, ends assumed; relative to: input RNA pool; direction: higher = stronger binding
Target: RING finger protein unkempt homolog, zinc fingers 1-6, GST-SBP tag (UNK, Homo sapiens, UniProt Q9C0B0, residues 30-357)
Sequence of UniProt Q9C0B0 (30-357, looked up): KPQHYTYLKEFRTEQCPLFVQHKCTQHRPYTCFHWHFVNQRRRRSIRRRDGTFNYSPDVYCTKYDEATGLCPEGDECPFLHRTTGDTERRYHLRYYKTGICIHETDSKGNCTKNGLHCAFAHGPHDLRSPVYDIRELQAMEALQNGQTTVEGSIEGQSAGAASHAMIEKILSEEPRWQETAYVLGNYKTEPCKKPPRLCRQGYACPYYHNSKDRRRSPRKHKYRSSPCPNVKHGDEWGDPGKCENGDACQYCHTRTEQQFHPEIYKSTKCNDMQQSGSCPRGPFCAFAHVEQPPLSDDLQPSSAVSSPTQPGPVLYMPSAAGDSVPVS
Constant ends, left off below: GGGAGUUCUACAGUCCGACGAUC … CAACAGAGGAUUGAGCAUCA
`GAACAGGAUGAUGAAGAUGAUUUAUCUGCUGGCUUGGCACUGAUUGACCUGGGUCAGAGUACCGAUAUGAAACUUUUUCCAAAAGGAACUAUAUUCACAGCAAAGUGUGAAACAUCUGGU` gave a bound/input enrichment of 0.226 ratio.
`GAGGAAUUUGGUGUUGUCUCAAAUACAAGAUUGAUUGCUGCUACUACUUCUGUAUUAAAAACCCGAUUUUCAUAUGCUUUUCCAAAGGAAUUUCCUUACAGGAUGAAUCAUAUACUAGAA` gave a bound/input enrichment of 0.414 ratio.
`GGUCGGCUCUACCAAGUAGAAUAUGCUUUUAAGGCUAUUAACCAGGGUGGCCUUACAUCAGCCGCUGUCAGAGGGAAAGACUGUGCAGUAAUUGUCACACAGAAGAAAGUACCUGACAAA` has a bound/input enrichment of 0.192 ratio.
With `GAUCAGAUUUCAACCUGGGACUGGAUUACAGAGGAUUGUUUCUAAUAACAACAUCAAUAUUCCCGAAGUCCCUGACAGCCUAGAAAUAAGCUGUUUGUCUUCUAUAAAGCAUUGCUAUAG` the bound/input enrichment was 0.123 ratio.
The bound/input enrichment of `CUCUGUCCUGAGUGUGAGAAUCCUGAAACAGAUCUGCAUGUCAAUCCAAAGAAGCAAACAACCGGUAAUUCUUGUAAAGCCUGUGGGUACCGAGGCAUGCUUGACACACAUCAUAAACUC` is reported as 0.187 ratio.
`GAGGUUGUUAAGGACAAAGCAGGACCUCAUAAGGAAAUCUACCCCUAUGUCAUCCAGGAACUCCGACCAACUUUAAAUGAACUGGGAAUCUCCACUCCGGAGGAACUGGGCCUUGACAAA` gave a bound/input enrichment of 0.162 ratio.
The bound/input enrichment of `GUGCUCCCUCGGGAUCUCUUCCAAAAGCUUUUCCGACAGGACCUGCUCGUGGCAAGUUUGUUCCGAAAUUUUUUAUUGGCAGAAAGAAUCAUGAGGUCAUAUAACUGCACCCCAGUAAGC` is reported as 0.119 ratio.
`AUAUCUUAUUGCCAUAAACUCCAUGUGGUUCACAGAGACUUAAAACCAGAGAAUGCCGUCUUCUUUGAAAAACAAGGUCUUGUAAAGUUGACAGACUUUGGGUUCAGCAACAAAUUUCAA` gave a bound/input enrichment of 0.124 ratio.
`AGUUUGUGCCGUUGCCCUUUCCCCAUAUGCCACUAGUGUGUAGGCAGAUGUCUGAGUCUCCCGGUGGUUUCUCCAUUUUAUAGCAGUUAGCUUUGAUGACCCUACUCCACGAAAAAUAAA` gave a bound/input enrichment of 0.796 ratio.
`GGCAUCGCGGGCUGUGGAACCCUACUAAUAUUGGAUCCAGAUGAAGCUGGGCUAAGGCUUUUCCGAAGCUUUGACUGGAAUGAUGGUUUGUUUGAUGUGACUUGGAGUGAGAACAACGAA` has a bound/input enrichment of 0.134 ratio.
With `CAUGGACAGCAAGCCUUGGGUAACCGGACCAGGCCAAGGGUCUACAAUUCUCCAACAAACCGCUCCUCUACCCAGGAUUCUAUGGAGGUUGGCCACAGUCACCACUCCAUGACAUCCCUG` the bound/input enrichment was 0.0439 ratio.

Block 4 — technique: RNA Bind-n-Seq; molecule type: RNA; medium: in vitro; tested at: 365 nM; relative to: no-protein control; direction: higher = stronger binding
Target: RNA binding protein fox-1 homolog 2, RRM domain, GST-SBP tag (RBFOX2, Homo sapiens, UniProt O43251-10, residues 100-194)
Notes: natural RNA segment, single round, ends assumed
Constant ends, left off below: GGGAGUUCUACAGUCCGACGAUC … UGGAAUUCUCGGGUGCCAA
Construct (chain): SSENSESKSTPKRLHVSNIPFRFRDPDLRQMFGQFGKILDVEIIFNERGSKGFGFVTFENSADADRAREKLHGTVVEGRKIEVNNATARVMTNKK
Under “RBNS enrichment (R)”, `AGACAUUUUUAUUUAGUUGAAAAAUCUAGUUUUUUUUGUAAACUGUAUCAAAUCUGUAUAUGUUGUAAUAAAACUUAUGCUAGUUUAUUGGAAGUGUUCAAGAAAUAAAA` is recorded as 0.853.
Under “RBNS enrichment (R)”, `AGCAAUAUGUUUCCUUCUCUGUAACAGUGUCCUAACAGUGAAAAUCAGAGUUAUUUGUUAAUUUUUAAGGAAAUUAUAUACUUAAUAUGUAUUGAUUAAAAGAAACAUUU` is recorded as 0.551.
Under “RBNS enrichment (R)”, `GUUGUUGUUUGUUGUUCAUUUAAACAUGUAUUUAGAACUGCACUUUGUCAGAACCUUCCAGUCCCUUCUUACUCCCCGGUUAACUGAGGUUUUUACCAAUUUCUAGAGCA` is recorded as 2.77.
For `AGGUAGCUCUUGAAGGUGAUAGCCAUCUACUUUCCAGUGGCUGCCAACCACAGGGAGUGCCAGUUAACACUGGAAGGAUUAAGGCAAGGUCCCUUCUCUUGAGACUCCCC`, “RBNS enrichment (R)” read 0.287.
`GCGCUUGGUGGUUUUAAAGUGCAUGCUAUUUUAUUAUCUUCUUCUGAAUAAAAUGUAUUUACUCAAAGUCUCUGCUGACAAACUCUCUUCCUUCUGGACUUCUAGCAGAA` — result for “RBNS enrichment (R)”: 1.83.
For `UUACUUCCCAGACCAGGUGUCCGGCUGGGAACAAACCACUAAUUUGUCACUGGACUGUCUCUGGGCCUGCUUAGACGGGGAUUGACACACAGAAUGGAACUGUGAGUGGA`, “RBNS enrichment (R)” read 1.3.
Under “RBNS enrichment (R)”, `CCAGGUAGGUGUUCCUCGAGUGCCAACGGCGGGGCCUGCCCACCCCUGUCUUCCUUUCUGGGCAAGCUCCCAUUUUAACUUUUCCCUGUUAAAAAUUGUACUGAUGUUUU` is recorded as 0.935.
For `UAGUUCCUGUGACAUUCCGCCUUCCUUCCAUGUAGUCCCUCUUGGUAAUCUACCACCAAGCUUGUGGACUUCACCCCAACAAAAUUGUAAGCGUUGUUAGGUUUUUGUGU`, “RBNS enrichment (R)” read 0.399.
For `CUAGAACAGUGACUAUAAAUGAUGUAUGGGAAUAGUGUUUCCAUAUGAUCUGUUGUCUGGAGUAUAUGCUACAUGUUCAUUUACUGUACAAAAACCCAGUGCAGCUGAUG`, “RBNS enrichment (R)” read 0.343.

Repeated from above (block 2):
Under “fitted relative affinity”, `TTAGGACTGGGTATCGGCTAGTGCTAG` is recorded as -0.578 z-score.
For `TCATATATCATTTAATTACTGTGCTAG`, “fitted relative affinity” read 0.968 z-score.
`GACGGTCTCGGATTGGGGACGTGCTAG`: “fitted relative affinity” 0.275 z-score.
For `GACGGTTTCGGTTTTGGGACGTGCTAG`, “fitted relative affinity” read 11 z-score.
Under “fitted relative affinity”, `ATAGGACTGGACTATCGGTTAGTGCTA` is recorded as -0.0368 z-score.
`GATGGTCTCGGTCTCGGGACGTGCTAG` — result for “fitted relative affinity”: -0.0201 z-score.
